# Results gathered from unrelated publications.
# A part holds a random share of what one study measured.

# Set 1
# Target: Histone acetyltransferase KAT6A, both winged helices, GST fusion (KAT6A, Homo sapiens, UniProt Q92794, residues 1-181)
# Technique: protein binding microarray
# Molecule type: double-stranded DNA, one strand shown
# Matrix: in vitro
# Concentration: not given
# Setting: 8-mer, flanks averaged, mean of 2 arrays, mostly near background
# Relative to: not given
# Reading: higher = stronger binding
# Construct (chain): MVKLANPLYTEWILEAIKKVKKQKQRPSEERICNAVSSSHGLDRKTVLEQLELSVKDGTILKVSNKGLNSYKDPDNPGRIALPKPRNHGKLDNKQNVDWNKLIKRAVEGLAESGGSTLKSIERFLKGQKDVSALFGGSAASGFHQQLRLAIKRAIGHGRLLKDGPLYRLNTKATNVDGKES
Strand,E-score
CATCGTGG,-0.0668
CCCCCGGG,0.233
CTCTCCTC,-0.178

# Set 2
# Target: Prothrombin, mature alpha-thrombin (F2, Homo sapiens, UniProt P00734)
# Technique: aptamer microarray, sandwich
# Molecule type: DNA with 2'F-ANA
# Matrix: in vitro
# Concentration: 200 nM
# Setting: whole 15-mer aptamer, many near background
# Added: Cy3 exosite-II aptamer, 400 nM
# Reading: higher = stronger binding
Strand,mean fluorescence intensity
GGTTGGTGTGGTTGG (2'F-ANA at 3 4 5 9 10 11 12 13 15),56.3 a.u.
GGTTGGTGTGGTTGG (2'F-ANA at 1 3 8 9 10 14),56.8 a.u.
GGTTGGTGTGGTTGG (2'F-ANA at 6 7 11 12 14 15),214 a.u.
GGTTGGTGTGGTTGG (2'F-ANA at 2 3 4 6 7 8 13 15),423 a.u.

# Set 3
# Target: Fragile X messenger ribonucleoprotein 1, C-terminal low-complexity region (Fmr1, Mus musculus, UniProt P35922)
# Technique: RNA Bind-n-Seq
# Molecule type: RNA
# Matrix: in vitro
# Concentration: 200 nM
# Setting: whole 134-nt RNA, ends assumed
# Added: 150 mM KCl
# Relative to: input library
# Reading: higher = stronger binding
Strand,log2 enrichment
GGGAGUUCUACAGUCCGACGAUCUGGGAGGUGGAUUUUGUUUAUUUUUUUAGUUCAUUUCCAGGGGUGGGAAUUUUUUUUUAAUAUGUGUCAUGAAUAAAGUUGUUUUUGAAAUGGAAUUCUCGGGUGUCAAGG,0.133
GGGAGUUCUACAGUCCGACGAUCUGCUCUUCACCAAGGAGGACGAGCCUGGCCGCUGCGACGUCCUGAGGAACCCCCUCUACCUCCAGAGUGUGAAGCUGCAGGAAGGUAAGCUGGAAUUCUCGGGUGUCAAGG,-0.00557
GGGAGUUCUACAGUCCGACGAUCACCAUGCAGGUGGGCAUCUUUGGGAAGAAAGGCAAGGGGGGGAUAGGGAGGGGGGUAACACUUUGGGAACAGGUGGUCCCAGGUCGUUUCUGGAAUUCUCGGGUGUCAAGG,1.21
GGGAGUUCUACAGUCCGACGAUCAGUCCUGUGCUACACAUCGUAUGUACCGAAUCGGGGUGGGGAAAAAGGGGUUUGGGGAAAGUAUUAUGUUACGCCGUUCGGAUCUGCACUUGGAAUUCUCGGGUGUCAAGG,0.773

# Further values, each from its own experiment
Molecule,target,test,test system,conditions,scale,quantity,value
"PhoQ, residues 284 288 289 292 302 303 WVSSAF","PhoP, residues 12 14 15 18 19 QYCSL (Escherichia coli, UniProt P23836)","Sort-seq, item: YFP reporter",E. coli,"PhoQ-PhoP variant library, added: 10 µM Mg2+","relative to: high Mg2+ state, higher = stronger signaling",fold induction,12.7

# For quick reference, copied from above (set 1):
Strand,E-score
CCCCCGGG,0.233
CTCTCCTC,-0.178
